Measurements pooled from the literature.
Compare with care: the assays were run in different laboratories. Numbers after ± are the reported error.
Target: Neutrophil elastase (ELANE, Homo sapiens, UniProt P08246)
Residues used in one study (P08246 30-267): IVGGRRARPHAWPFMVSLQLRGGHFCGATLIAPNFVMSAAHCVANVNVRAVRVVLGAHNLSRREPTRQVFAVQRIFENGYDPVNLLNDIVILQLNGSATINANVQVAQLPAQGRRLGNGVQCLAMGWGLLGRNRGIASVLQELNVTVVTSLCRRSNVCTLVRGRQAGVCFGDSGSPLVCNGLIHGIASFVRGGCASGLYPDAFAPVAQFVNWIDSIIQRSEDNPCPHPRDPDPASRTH

| Structure (SMILES) | assay | setting | endpoint | value |
| --- | --- | --- | --- | --- |
| Cc1ccc(C(=O)Nc2cc(S(=O)(=O)O)cc3ccc(S(=O)(=O)O)cc23)cc1NC(=O)Nc1cc(C(=O)Nc2cc(S(=O)(=O)O)cc3ccc(S(=O)(=O)O)cc23)ccc1C | enzyme activity, inhibitor, chromogenic substrate hydrolysis | pH 7.4, 37 °C, 100 mM NaCl, with: substrate S-1384 | Hill slope | 1.2 ± 0.4 |
| CCc1nc2ccccc2n1S(=O)(=O)c1ccc2c(c1)C(=O)CC2=O | enzyme activity, inhibitor, fluorescence | 0.1 µM | inhibition | 42.1% |
| Cc1ccc(S(=O)(=O)N2N=Cc3ccsc3B2O)cc1 | enzyme activity, inhibitor |  | kon | 2.68 M⁻¹ s⁻¹ |
| Cc1nc2ccccc2n1S(=O)(=O)c1ccc2c(c1)C(=O)CC2=O | enzyme activity, inhibitor, fluorescence | 10 µM | inhibition | 25.4% |
| O=C(Nc1ccc(C(=O)Nc2ccc(C(=O)Nc3ccc(S(=O)(=O)O)c4cc(S(=O)(=O)O)cc(S(=O)(=O)O)c34)cc2)cc1)Nc1ccc(C(=O)Nc2ccc(C(=O)Nc3ccc(S(=O)(=O)O)c4cc(S(=O)(=O)O)cc(S(=O)(=O)O)c34)cc2)cc1 | substrate S-1384 hydrolysis | pH 7.4, 37 °C, enzyme 300 nM | Km | 216 ± 55.1 µM |
| OB1OCc2ccccc21 | enzyme activity, inhibitor, fluorimetric | up to 100 µM | inhibition | inactive |
| COc1cc(/C=N\C(=S)NNC(=O)CC2C(=O)c3ccccc3C2=O)cc(OC)c1OC | enzyme activity, inhibitor, fluorescence | 0.1 µM | inhibition | 14% |
| COc1cc(-c2ccc(/N=N/c3ccc4c(S(=O)(=O)O)cc(S(=O)(=O)O)c(N)c4c3O)c(OC)c2)ccc1/N=N/c1ccc2c(S(=O)(=O)O)cc(S(=O)(=O)O)c(N)c2c1O | enzyme activity, inhibitor, chromogenic substrate hydrolysis | pH 7.4, 37 °C, 100 mM NaCl, with: substrate S-1384 | Hill slope | 1.9 ± 0.4 |
| O=C(Nc1ccc(C(F)(F)F)cc1)Nc1ccccc1S(=O)(=O)O | enzyme activity, inhibitor, fluorescence | 100 µM | inhibition | 41.2% |

A few entries again:
| Structure (SMILES) | assay | setting | endpoint | value |
| --- | --- | --- | --- | --- |
| Cc1nc2ccccc2n1S(=O)(=O)c1ccc2c(c1)C(=O)CC2=O | enzyme activity, inhibitor, fluorescence | 10 µM | inhibition | 25.4% |
